Measured values pooled from the literature.
Numbered parts are unrelated; each lists some results of a single study. Positions count from the first letter of the parent shown.

Series 1
Target: Histone acetyltransferase KAT6A, both winged helices, GST fusion (KAT6A, Homo sapiens, UniProt Q92794, residues 1-181)
Technique: protein binding microarray
Molecule type: double-stranded DNA, one strand shown
Sample: in vitro
Concentration: not given
Setting: 8-mer, flanks averaged, mean of 2 arrays, mostly near background
Reference: not given
Direction: higher = stronger binding
Target sequence (chain): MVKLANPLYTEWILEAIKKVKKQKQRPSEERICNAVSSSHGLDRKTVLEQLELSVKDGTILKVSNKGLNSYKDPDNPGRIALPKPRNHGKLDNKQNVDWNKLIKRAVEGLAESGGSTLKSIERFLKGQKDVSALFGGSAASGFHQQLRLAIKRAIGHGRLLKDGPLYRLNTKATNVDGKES
| Sequence | E-score |
| --- | --- |
| CTAAGGCC | 0.0944 |
| CAATACTC | -0.143 |
| TGAATGCA | -0.224 |
| AATGACCT | -0.108 |
| ACGTGGCT | -0.0715 |
| AACAACAG | -0.0711 |
| CGGTGCGC | 0.262 |
| AATAGAAA | 0.0232 |
| GTACGCAA | 0.0763 |
| TATGATAA | -0.0297 |
| AACAGCCC | -0.107 |
| CCACTAAA | -0.172 |
| AGATGTCA | -0.024 |
| AGCCCAGC | -0.107 |
| GAGGCCCA | -0.0592 |
| AGCGTCCG | 0.196 |
| ATCTAGTC | -0.26 |
| GGAAAGAC | -0.025 |
| AGTATCGC | 0.0249 |
| CGGTCGCA | 0.21 |
| AATTATGA | -0.0012 |
| CGCTGCTA | 0.0308 |
| ACTGCAAC | -0.101 |
| ACGCTGGC | 0.0401 |
| GCAAGTAC | -0.00178 |

Series 2
Target: ABI1, truncated, D143A, DHFR fusion (Arabidopsis thaliana)
Technique: DHFR PCA, deep sequencing
Sample: yeast
Setting: methotrexate growth selection, single substitutions
Together with: (+)-ABA 0.11 µM
Reference: wild-type fitted maximum
Direction: higher = stronger binding
Starting sequence: PYL1, truncated, DHFR fusion (Arabidopsis thaliana); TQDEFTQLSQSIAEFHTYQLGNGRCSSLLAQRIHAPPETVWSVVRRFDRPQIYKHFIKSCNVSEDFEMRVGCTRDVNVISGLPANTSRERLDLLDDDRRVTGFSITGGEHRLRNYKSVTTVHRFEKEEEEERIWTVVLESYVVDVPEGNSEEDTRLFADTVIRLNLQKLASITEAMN; partner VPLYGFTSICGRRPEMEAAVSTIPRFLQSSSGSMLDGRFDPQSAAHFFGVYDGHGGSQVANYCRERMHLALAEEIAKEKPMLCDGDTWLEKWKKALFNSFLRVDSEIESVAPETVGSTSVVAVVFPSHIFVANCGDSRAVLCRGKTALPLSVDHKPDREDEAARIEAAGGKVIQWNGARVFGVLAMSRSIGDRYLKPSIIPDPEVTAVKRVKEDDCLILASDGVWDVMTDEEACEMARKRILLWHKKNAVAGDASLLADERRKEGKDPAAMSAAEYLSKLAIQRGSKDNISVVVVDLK
| Change | relative binding score |
| --- | --- |
| S117K | -13.1% |
| T101H | -4.77% |
| R99Q | 12.9% |
| F56Y | -1.18% |
| E174R | -4.74% |
| Q7N | 19.1% |
| R163P | 0.429% |
| F47Y | 0.821% |
| E130V | 27.1% |
| L156T | 26.3% |
| V142T | 13.9% |
| R90V | 10.1% |
| L94P | -5.96% |
| L94F | 43.3% |
| E147V | 16.6% |
| A35W | -1.16% |
| H55Q | 47% |
| K58N | 2.19% |

Series 3
Target: Interferon regulatory factor 3, full length, phosphomimetic (IRF3, Homo sapiens, UniProt Q14653, residues 1-427, S386D/S396D/S398D/S402D/T404D/S405D)
Technique: protein-binding microarray
Molecule type: double-stranded DNA, one strand shown
Sample: in vitro
Concentration: 2540 nM top
Setting: 60-bp whole probe
Together with: salmon DNA 0.4 mg/ml
Reference: random background probes
Direction: higher = stronger binding
All sequences stand within: GCCTAGCAC … GTCTTGATTCGCTTGACGCTGCTG
Residues (chain): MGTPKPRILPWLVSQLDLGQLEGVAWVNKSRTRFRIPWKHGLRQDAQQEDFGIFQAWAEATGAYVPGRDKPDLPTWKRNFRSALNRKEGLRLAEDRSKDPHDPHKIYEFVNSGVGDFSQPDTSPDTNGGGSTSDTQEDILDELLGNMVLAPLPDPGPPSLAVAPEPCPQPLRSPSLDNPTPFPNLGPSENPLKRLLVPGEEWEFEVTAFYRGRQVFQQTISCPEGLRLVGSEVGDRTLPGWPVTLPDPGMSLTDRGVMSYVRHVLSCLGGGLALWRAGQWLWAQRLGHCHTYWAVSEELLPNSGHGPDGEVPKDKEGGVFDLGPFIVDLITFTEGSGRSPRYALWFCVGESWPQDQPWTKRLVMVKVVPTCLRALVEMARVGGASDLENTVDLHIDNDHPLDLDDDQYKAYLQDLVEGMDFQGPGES
| Sequence | fitted relative affinity |
| --- | --- |
| CATTGCCTGTTTTTCCCCTGGTGCTAG | 0.824 z-score |
| GACGGTTTCCTACTACTGACGTGCTAG | 5.71 z-score |
| GACCGACTGCTTCTCCTGACGTGCTAG | 0.0201 z-score |
| TTAGGTATCGGACTGGCTTAGTGCTAG | 1.02 z-score |
| TTTGGTATCGACTATCGGTTAGTGCTA | 0.616 z-score |
| CTGCTGGCCTGTTGCTGGAAGTGCTAG | -0.638 z-score |
| TTAGGTCCCCTTTTCCTTTAGTGCTAG | 3.61 z-score |
| GACGGTATCCTTATCCTCACGTGCTAG | 5.04 z-score |
| CCCAGGGTCTGTTTGGGTCTGTGCTAG | -0.361 z-score |
| GACGATTTCATTATCGAGACGTGCTAG | 2.46 z-score |
| GACGGTTTCGGGTTCCGGGACGTGCTA | 5.06 z-score |
| TTAGGTATCGGTCTCGGTGAGTGCTAG | 4.35 z-score |
| TTTTTTATCAATCATTTTCGTGTGCTA | 1.51 z-score |
| GGAAATATTTACCTCTCACGGTGCTAG | 0.468 z-score |
| TTGCCTCACCTCACCTGTCCGTGCTAG | 0.553 z-score |
| TTAGATTTCAGTATCGATGAGTGCTAG | 2.22 z-score |
| GACGATCTCAGTTTGGAGACGTGCTAG | 0.629 z-score |
| TTAAGTTCCCTTTTCCTTTAGTGCTAG | 7.09 z-score |
| TCAGTTCACTATTTAAGACTGTGCTAG | 1.83 z-score |

Series 4
Target: RING finger protein unkempt homolog, zinc fingers 1-6, GST-SBP tag (UNK, Homo sapiens, UniProt Q9C0B0, residues 30-357)
Chain of UniProt Q9C0B0 (30-357, looked up): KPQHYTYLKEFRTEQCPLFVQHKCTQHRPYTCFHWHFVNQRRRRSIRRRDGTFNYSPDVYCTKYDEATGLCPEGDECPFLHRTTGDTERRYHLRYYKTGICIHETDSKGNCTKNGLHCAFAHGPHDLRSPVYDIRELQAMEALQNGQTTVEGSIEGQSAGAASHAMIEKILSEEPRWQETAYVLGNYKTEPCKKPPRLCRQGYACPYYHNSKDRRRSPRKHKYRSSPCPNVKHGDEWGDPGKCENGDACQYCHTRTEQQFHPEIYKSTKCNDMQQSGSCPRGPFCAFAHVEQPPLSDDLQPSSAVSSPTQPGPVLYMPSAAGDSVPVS
Technique: RNA Bind-n-Seq
Molecule type: RNA
Sample: in vitro
Concentration: not given
Setting: RNA with constant flanks, human and mouse sites, ends assumed
Reference: input RNA pool
Direction: higher = stronger binding
All sequences stand within: GGGAGUUCUACAGUCCGACGAUC … CAACAGAGGAUUGAGCAUCA
| Sequence | bound/input enrichment |
| --- | --- |
| CUACAAGGAGGUGAAGGACAAGCUCCUACAAGGCAGGCAGUAUUGGGUGCAGGCUUACCUAUUUCUACUCCAUGUACCACCAUAAACAAAGUUUGUGCUUCAGGAAUGAAAGCCAUCAUG | 0.162 ratio |
| CUUCAGUUGUAUGAAGUACAGUUUGAAAUCUUGAAGUGUGAAGAGUUACUAUUGACAGCGCAACUAGAAAGCAUCAAAAGACUUAUAUCAGAAAAAAGAGAUGAAGUGGUAUACUAUGAC | 0.426 ratio |
| CAUCAGCUGUCUACACCACAAAAAGCAAGUCAACACCAAGUUCUGUUUUUGUUAUCAGAUGUAGCACAUGCUAAGAAUCCAACCCAUUCCAUUAAAAAAGUACCUACCUCUGCUUUAGUU | 0.308 ratio |
| AAGGCCUUCAUCACAUACCGAACCCUUACAAACCACAAAAAAGUUCAUCUUGGGGAGAAGCCCUACAAAUGUGAUGUGUGUGAGAAAUCUUUUAAUUACACAUCGCUCCUUUCUCAGCAC | 0.13 ratio |
| UGCUUUACUGGAAAGACCCAGAAUAUGCCAAGUAUCUAAAGUACCCUCAGUGUUUACACAUGUUAGAGCUGCUCCAAUAUGAACACUUCCGAAAGGAGCUGGUGAAUGCUCAGUGUGCGA | 0.152 ratio |
| UCUCAGCUUCGGAGAAUGGAGUCUUCCAUCAAUCAUAUCUCACAGACUGUGGAUAUUCAUAAGGAGAAAGUGGCACGAAGAGAGAUUGGUAUUUUGACAACAAAUAAGAAUACAUCAAGA | 0.229 ratio |
| UCCAGUACGGCAGCCCCAUCAGGGGCUGGGAAUGUGGCUUCAGGCUCAGGGAAUAACUCGGGGGGACCCAGCCUCUUGGUGCCACUGCCUGUAAAUCCCCCCAGUUCUCCAACGCCCAGC | 0.139 ratio |
| UAUGAUGAAAAUAUUAACAUUUCUAGAUUAAAAGUAUGACUGAUCUUUCGUUAUCCACUGUAGCAAGGUGAAAGCACACACAAUCGAAAUCCAUAGAUAAUCAGUGUUUAGCCUUCUCCU | 0.722 ratio |
| AUGCUCUUAGAAGCUGAAAAUGACAAAGAGGUCGAAAUUCUUAAAGACAUCCGAGCACAUUUUAGCGCCAUGGUUGCCAACUUGAUCCAGUGUGUUCCAGUUCAUCACAGAAGAUUUCUC | 0.121 ratio |
| AUGCAGAGCAAGAGAAAAGGAGAAGGGGGCACAGACCCGGAACUAGAGGGUGAGCUAGAUAGCCGGUAUGCCCGCCGCAGGUACUACCGACUUUUGCAGAGUCCUCUGUGCGCAGGAUGU | 0.642 ratio |
| GUAAAGAGUUAAAGACUAUGUGAAGGAUUGUAUAUUUAAGUUAUUGAAAUUCUGAAACUGUAGUAAUCUAAAAUGUGUGAGUUGUGGGCUGCAGAGAAGACUCAGCCAGUAAAGGCACCU | 1.26 ratio |

Series 5
Target: CCND3, cyclin fold, Cln2 fusion (human)
Technique: yeast growth competition, sequencing
Sample: yeast
Setting: weak parent motif
Reference: not given
Direction: higher = stronger binding
Starting sequence: ORC1 docking peptide (human); PRARKRLELGNLG; partner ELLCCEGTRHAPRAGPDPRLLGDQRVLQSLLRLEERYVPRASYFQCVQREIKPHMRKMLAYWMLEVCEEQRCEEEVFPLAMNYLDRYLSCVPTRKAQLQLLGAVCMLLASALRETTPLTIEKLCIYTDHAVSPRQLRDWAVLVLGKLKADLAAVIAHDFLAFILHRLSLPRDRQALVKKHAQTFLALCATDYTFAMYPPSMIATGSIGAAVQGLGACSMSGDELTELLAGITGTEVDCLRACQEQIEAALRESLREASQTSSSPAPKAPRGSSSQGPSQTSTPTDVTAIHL
| Change | normalised enrichment score |
| --- | --- |
| PRARKRLELGNLL [G13L] | 0.0282 |
| PRARKRLELNNLG [G10N] | 0.107 |
| PRARKRLELGNMG [L12M] | 0.16 |
| PRARYRLELGNLG [K5Y] | 0.0779 |
| PRARKRLELGPLG [N11P] | 0.154 |
| PRARKRLWLGNLG [E8W] | 0.118 |
| PRAMKRLELGNLG [R4M] | 0.144 |
| PRARKRLELGFLG [N11F] | 0.168 |
| ERARKRLELGNLG [P1E] | 0.154 |
| PRARIRLELGNLG [K5I] | 0.164 |
| PRARHRLELGNLG [K5H] | 0.137 |
| PRARKRLALGNLG [E8A] | 0.12 |
| KRARKRLELGNLG [P1K] | 0.122 |
| PRARSRLELGNLG [K5S] | 0.11 |
| PRARFRLELGNLG [K5F] | 0.149 |
| PRYRKRLELGNLG [A3Y] | 0.279 |
| MRARKRLELGNLG [P1M] | 0.0358 |
| PRAKKRLELGNLG [R4K] | 0.0711 |
| PRARRRLEFGNLG [K5R L9F] | 0.236 |
| PRARKRLCLGNLG [E8C] | 0.087 |
| NRARKRLELGNLG [P1N] | 0.178 |
| PRARKDLELGNLG [R6D] | 0.16 |
| PRSRKRLELGNLG [A3S] | 0.137 |
| PRARKRLENGNLG [L9N] | 0.0949 |
| PRARKSLELGNLG [R6S] | 0.122 |

Single results of other studies
| Molecule | target | test | system | conditions | how to read | quantity | value |
| --- | --- | --- | --- | --- | --- | --- | --- |
| PhoQ, residues 284 288 289 292 302 303 SLANKL | PhoP, residues 12 14 15 18 19 AQCLL (Escherichia coli, UniProt P23836) | Sort-seq, item: YFP reporter | E. coli | PhoQ-PhoP variant library, together with: 10 µM Mg2+ | reference: high Mg2+ state, higher = stronger signaling | fold induction | 6.25 |

Excerpt of the above (series 5):
| Change | normalised enrichment score |
| --- | --- |
| PRARKRLELGNLL [G13L] | 0.0282 |
| PRARKRLELNNLG [G10N] | 0.107 |
| PRARKRLELGNMG [L12M] | 0.16 |
| PRARYRLELGNLG [K5Y] | 0.0779 |
| PRARKRLELGPLG [N11P] | 0.154 |
| PRARKRLWLGNLG [E8W] | 0.118 |
